Assay results gathered from unrelated publications.
Protocols differ between the studies behind these lines.
Target: Dual specificity protein kinase CLK2 (CLK2, Homo sapiens, UniProt P49760)
UniProt P49760, sequence (whole entry, looked up): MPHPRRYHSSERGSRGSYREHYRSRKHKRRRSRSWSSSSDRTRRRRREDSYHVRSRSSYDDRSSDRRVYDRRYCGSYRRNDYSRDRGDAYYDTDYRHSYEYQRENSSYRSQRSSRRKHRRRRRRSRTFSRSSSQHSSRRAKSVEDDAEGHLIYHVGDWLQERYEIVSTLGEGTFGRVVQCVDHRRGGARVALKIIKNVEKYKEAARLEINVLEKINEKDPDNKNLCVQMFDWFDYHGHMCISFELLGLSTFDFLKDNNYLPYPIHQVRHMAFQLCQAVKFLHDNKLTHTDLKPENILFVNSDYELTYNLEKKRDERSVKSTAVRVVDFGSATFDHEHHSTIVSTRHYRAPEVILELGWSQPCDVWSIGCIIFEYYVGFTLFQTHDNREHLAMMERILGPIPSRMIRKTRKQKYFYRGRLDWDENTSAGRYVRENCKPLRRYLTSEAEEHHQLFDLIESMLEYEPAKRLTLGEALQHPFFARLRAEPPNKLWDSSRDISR

`COc1cc(Nc2nc(C)cc(-c3cnn4nc(OC)ccc34)n2)cc(C(F)(F)F)c1` gave a remaining binding of 96% (binding, competition with immobilised ligand; 1 µM).
`Nc1ncc(-c2cc(-c3cnn(CC(F)(F)F)c3)ncc2F)nc1C(=O)NC1CNCC(F)C1` (stereo not drawn) has a remaining activity of 50.9% (enzyme activity; 1 µM; baseline: DMSO control).
For `C=CC(=O)Nc1cccc(-c2cnc3[nH]cc(C(=O)NC(C)(C)C)c3n2)c1`, the inhibition was 74% (enzyme activity, inhibitor; 0.1 µM).
The remaining activity of `O=C=[N][Ru-4]123([n]4c5ccc(O)cc5c5c6c(c7cc(F)c[n+]1c7c54)C(=O)NC6=O)[S+]1CC[S+]2CC[S+]3CC1` (stereo not drawn) is reported as 2% (enzyme activity; 100 nM, human enzyme, added: 10 µM ATP; baseline: untreated).
With `COc1c(OCCCN2CCOCC2)ccc2c1N=C(NC(=O)c1cnc(N)nc1)N1CCN=C21` the remaining activity was 99% (kinase activity, inhibitor; 1 µM; baseline: untreated control).
For `C=CC(=O)N1CCCC(n2c(=O)c3ncccc3n(Cc3ccc(Oc4ccccc4)cc3)c2=O)C1` (stereo not drawn), the remaining binding was 91% (cell-free assay, competition with immobilised ligand; 1 µM).
The inhibition of `NC(=O)[C@@H](O)C[C@H]1CCc2sc3ncnc(O[C@H]4CC[C@H](N5CCOCC5)CC4)c3c21` is reported as 99% (enzyme activity, inhibitor; 10 µM).
`Cc1cccc(O[C@H]2CCC[C@@H](C(C)CNCc3ccncc3)C2)c1` (relative stereo) has an inhibition of -5% (enzyme activity, inhibitor; 10 µM).
`CC(C)=CC1OC(C)(C)C2C=C3C(=O)C(Cl)=CC(O)C3C3C(O)C4OC4C(=O)C132` (stereo not drawn) has a remaining binding of 70% (cell-free assay, competition with immobilised ligand; 10 µM).
With `CCN1CCN(Cc2ccc(C(=O)Nc3ccc(C)c(NCc4cnc5[nH]ccc5c4OC)c3)cc2C(F)(F)F)CC1` the remaining binding was 90% (binding, competition with immobilised ligand; 1 µM).
The inhibition of `CCn1cc(C(=O)O)c(=O)c2c(N)c(F)c(NC3CCCCC3)cc21` is reported as -7.8% (kinase activity; 0.1 µM, added: ATP at Km).
`Cc1cc(NC(=O)[C@H](O)c2cc(F)cc(F)c2)ccc1-c1cnc(N)c(C(=O)NC(C)C)c1` has a remaining binding of 61% (binding, competition with immobilised ligand; 0.1 µM).
`CN1CCN(Cc2ccc(-c3ccc(CO[C@H]4CCC[C@@H]4NC(=O)c4cc(-c5cnn(C)c5)cnc4N)cc3)cc2)CC1` gave an inhibition of 3% (enzyme activity, inhibitor; 0.1 µM).
`C=CC(=O)N1CCc2ccc(-n3c(=O)ccc4cnc5ccc(-c6cnn(C)c6)cc5c43)cc21` gave a remaining binding of 86% (KINOMEscan; 1 µM; baseline: DMSO control).
With `CNC(=O)C1CCN(c2cc(C)c(F)cc2NC(=O)c2ccc(-c3cc(O)ccc3C)c(C)c2)CC1` the remaining binding was 97% (binding, competition with immobilised ligand; 1 µM).

Excerpt of the above:
The inhibition of `NC(=O)[C@@H](O)C[C@H]1CCc2sc3ncnc(O[C@H]4CC[C@H](N5CCOCC5)CC4)c3c21` is reported as 99% (enzyme activity, inhibitor; 10 µM).
